Published values from different studies.
Protocols differ between the studies behind these lines. “And” joins repeats or separate records; there may be more than shown. Numbers after ± are the reported error.
BRD3 BD1: Bromodomain-containing protein 3, BD1 (BRD3, Homo sapiens, UniProt Q15059)
MAPK8: Mitogen-activated protein kinase 8 (MAPK8, Homo sapiens, UniProt P45983)
Dipeptidyl peptidase 8: Dipeptidyl peptidase 8 (Homo sapiens, UniProt Q6V1X1)

SMILES	target	assay	test system	setting	scale	quantity	value
CCCCCCCCCCCCC/C=C/C=O	Myosin regulatory light chain 12B (MYL12B, Homo sapiens, UniProt O14950)	competitive isoTOP-ABPP, refers to: MRLC2 cysteine peptide	Ramos soluble proteome	100 µM, with: iodoacetamide probe	baseline: DMSO over compound-treated, higher = stronger cysteine blockade	isoTOP-ABPP competition ratio	1
CC1(C)C[C@@H](Nc2cccc(-c3sc(C(=O)O)c(OCC(=O)O)c3Cl)c2)CCN1S(=O)(=O)Cc1cccc(NC(=O)CN2CCC(c3ccc4c(c3)oc(=O)n4C3CCC(=O)NC3=O)CC2)c1 (stereo partly drawn)	PTPN2 (Homo sapiens, UniProt P17706, H30A/P33A/R35A)	degrader, bio-layer interferometry		500 nM	higher = more binding	BLI binding response	0.528 a.u.
CN(Cc1cc(C2CC2)on1)C(=O)c1cccc(-c2ccc3c(c2)CCO3)c1	acetoacetyl-CoA synthetase (Cryptococcus neoformans)	enzyme activity, inhibitor		3.91 µM		remaining activity	106%
Cc1cc(C)c(CNC(=O)c2c(C)n(C(C)C3CCC(NC4(C)COC4)CC3)c3ccccc23)c(=O)[nH]1 (stereo not drawn)	EZH2 (Homo sapiens, UniProt Q15910)	binding, jump dilution		with: H3K27me3 activating peptide		residence time	564 min
O=C1c2sc(-c3ccc(N4CCC(CO)CC4)nc3F)nc2CCN1c1cccnc1	HRH3 (Homo sapiens, UniProt Q9Y5N1)	ligand displacement, radioligand		1 µM		inhibition	3%
CC[C@H](C)[C@@H]1NC(=O)[C@H](Cc2c[nH]c3ccccc23)NC(=O)[C@H](Cc2ccccc2)N(C)C(=O)[C@H](C(C)C)NC(=O)[C@H](CC(C)C)NC(=O)[C@H](Cc2ccccc2)NC(=O)CSC[C@@H](C(=O)N[C@@H](CC(N)=O)C(N)=O)NC(=O)[C@H](Cc2ccccc2)NC1=O	STING1 (Homo sapiens, UniProt Q86WV6, H232R)	thermal stability, DSF		50 µM		ΔTm	2.53 °C
CCc1ccc(C(=O)N2c3ccc(F)cc3[C@@H](Nc3ccccc3)C[C@H]2C)cc1	Ecdysone receptor (Aedes albopictus, UniProt Q9U3Y4)	ligand binding, inhibitor	intact cells	with: [3H]ponasterone A	direction not given	pIC50 Z-score	-0.31
CC(=O)N[C@H]1[C@H]([C@H](O)[C@H](O)CNC(=O)c2ccc(-c3ccccc3)cc2)O[C@@](OCc2cccc(Cl)c2Cl)(C(=O)O)C[C@@H]1O	CD22 (Homo sapiens, UniProt P20273)	isothermal titration calorimetry				-TΔS	2.61 ± 0.03 kcal/mol
CC(=O)N1c2ccc(-c3ccc(CNC(=O)c4cn5cc(-c6cnc(N)nc6)nc(N6CCOCC6)c5n4)cc3)cc2CC[C@@H]1C	BRD3 BD1	binding, competition with immobilised ligand		10 µM		remaining binding	0.3%
Nc1ccn([C@@H]2O[C@H](COP(=O)(O)OP(=O)(O)OP(=O)(O)O)[C@@H](O)[C@H]2O)c(=O)n1	Genome polyprotein, NS5B (Hepatitis C virus genotype 1b, UniProt Q9WMX2)	nucleotide incorporation, substrate				Vmax	0.72 fraction per time
COc1ccccc1-c1ccncc1C(=O)Nc1nnc(OCc2ccc(Cl)cc2)s1	DNA polymerase theta, helicase domain (POLQ, Homo sapiens, UniProt O75417)	ATPase activity, ADP-Glo		0.002 µM, with: ATP 100 µM		remaining activity	85%
COc1cc(-c2cn(C)c(=O)c3cnccc23)cc(OC)c1CN(C)C	BRD3 BD1					ΔTm	0.5 °C
COC(=O)[C@]1(Cc2ccccc2)C=C(C(=O)OC(C)(C)C)C(=O)CC1	MAPK8	D-peptide binding, inhibitor, FP peptide displacement		1000 µM	lower is stronger displacement	fraction bound	-0.0933
CCCCCC=CC=C1C(=O)C=CC1CC=CCCCC(=O)O (stereo not drawn)	REEP5 (Homo sapiens, UniProt Q00765)	competitive isoTOP-ABPP	proteome, soluble, MDA-MB-231	100 µM, 60 min, with: iodoacetamide probe	baseline: DMSO over compound-treated, higher = stronger cysteine blockade	isoTOP-ABPP competition ratio	5.1
O=C(O)C1OC(OC2C(C(=O)O)OC(OC3C(C(=O)O)OC(OC4C(C(=O)O)OC(O)C(O)C4O)C(O)C3O)C(O)C2O)C(O)C(O)C1O (stereo not drawn)	Beta-lactoglobulin (LGB, Bos taurus, UniProt P02754, A134V/G80D)	isothermal titration calorimetry		concentration not given, pH 4.00, 37 °C, 50 mM KH2PO4	ligand per protein	binding stoichiometry	4
O=C(Cc1ccc(OCc2ccccc2)cc1)NC1(C(=O)O)CCN(C(=O)c2ccc(-c3cccc(Cl)c3)cc2)CC1	PDK4 (Homo sapiens, UniProt Q16654)	enzyme activity, inhibitor		10 µM		activity vs control	81%
COC(=O)[C@@]1(C)C=C(C(=O)OC(C)(C)C)C(=O)CC1	MAPK8	D-peptide binding, inhibitor, FP peptide displacement		7.812 µM	lower is stronger displacement	fraction bound	0.883
O=[N+]([O-])c1cc(Br)cc([N+](=O)[O-])c1NS(=O)(=O)c1ccc(Br)cc1	PYL10, with HAB1 (Arabidopsis thaliana, UniProt Q8H1R0)	antagonist		2.5 µM, with: ABA 5 µM	higher = more HAB1 activity	HAB1 phosphatase activity	0.083 a.u. and 0.09 a.u. and 0.081 a.u.

SMILES	target	assay	test system	setting	scale	quantity	value
CCN(CC)C(CO)c1cccc2c(C)c(C)oc12 (stereo not drawn)	LPAR1 (Homo sapiens, UniProt Q92633)	G-protein dissociation, agonist, NanoBiT	HEK-293T	10 µM, wild-type receptor	baseline: baseline luminescence	fold change	0.605 and 0.743 and 0.671 and 0.735 and 0.678 and 0.556
Cc1cn(CC(=O)N(CC(=O)N[C@H]2COC[C@@H]2N(CC(=O)NCCOCCOCC(N)=O)C(=O)Cn2cnc3c(N)ncnc32)[C@H]2COC[C@@H]2NC(=O)CN(C(=O)Cn2cnc3c(N)ncnc32)[C@H]2COC[C@@H]2NC(=O)CN(C(=O)Cn2cnc3c(=O)[nH]c(N)nc32)[C@H]2COC[C@@H]2NC(=O)CN(C(=O)Cn2cc(C)c(=O)[nH]c2=O)[C@H]2COC[C@@H]2NC(=O)CN(C(=O)Cn2cnc3c(=O)[nH]c(N)nc32)[C@H]2COC[C@@H]2NC(=O)CN(C(=O)Cn2cc(C)c(=O)[nH]c2=O)[C@H]2COC[C@@H]2NC(=O)CN(C(=O)Cn2cnc3c(N)ncnc32)[C@H]2COC[C@@H]2NC(=O)CN(C(=O)Cn2cnc3c(=O)[nH]c(N)nc32)[C@H]2COC[C@@H]2N)c(=O)[nH]c1=O	complementary RNA	duplex formation, UV melting curve fit	PBS	1 µM		ΔH	-69.8 ± 0.4 kcal/mol
N#CN1CC[C@H](C(=O)Nc2nc3c(s2)CN(C(=O)CN=[N+]=[N-])CC3)C1	Pyruvate carboxylase, mitochondrial (Homo sapiens, UniProt P11498)	click pull-down LC-MS/MS	HEK293T cells			total spectral count	4
Clc1ccc(COC(Cn2ccnc2)c2ccc(Cl)cc2Cl)cc1 (stereo not drawn)	ULK1 (Homo sapiens, UniProt O75385)	enzyme activity, inhibitor, ADP detection		0.1 µM		activity vs control	106%
CC(C)[C@@H]1NC(=O)[C@H](Cc2ccccc2)NC(=O)CSC[C@@H](C(N)=O)NC(=O)[C@H](CCC(=O)O)NC(=O)[C@H](CO)NC(=O)[C@H](Cc2c[nH]c3cccc(Cl)c23)NC(=O)[C@H](C2CCCCC2)NC(=O)[C@H](C(C)C)NC(=O)[C@H](Cc2ccc(O)cc2)NC(=O)[C@H](CC(=O)O)NC(=O)[C@H](Cc2c[nH]c3ccccc23)NC(=O)[C@H](Cc2ccc(N)nc2)NC(=O)[C@H](Cc2c[nH]c3ccc(Cl)cc23)NC(=O)[C@H](CCC(=O)O)NC1=O	Interleukin-1 receptor-like 2 (IL1RL2, Homo sapiens, UniProt Q9HB29)	reporter gene (SEAP), inhibitor, HEK-Blue IL-36R reporter	HEK-Blue IL-36R cells	0.005 µM, 6 h, with: IL-36β 100 ng/mL		remaining activity	94.2%
CN(C)c1ccc(-n2cc(COC(=O)[C@@]3(C)C=C(C(=O)OC(C)(C)C)C(=O)CC3)nn2)cc1	MAPK8	D-peptide binding, inhibitor, FP peptide displacement		1.562 µM	lower is stronger displacement	fraction bound	0.928
Cc1cc(C)cc(COc2cc3c(cc2OCc2cc(C)cc(C)c2)C2CC(O)(Cc4cn(CCOCCOCCNC(=O)CCCCC5SCC6NC(=O)NC65)nn4)CC(C)N2CC3)c1 (stereo not drawn)	KPNB1 (Homo sapiens, UniProt Q14974)	biotinylated probe pull-down		10 µM probe	baseline: heavy over light	SILAC ratio	3.2
CC1(Cc2ccccc2)C(=O)N(c2cccc(CN3CCN(Cc4ccc(Br)cc4)CC3)c2)C1=O.O=C(O)C(F)(F)F	Dipeptidyl peptidase 8	inhibitor		with: GP-AMC substrate	baseline: Ki' DPP9 over Ki' DPP8	selectivity ratio	9
O=P(O)(O)O[C@H]1[C@H](OP(=O)(O)O)[C@@H](OP(=O)(O)O)[C@@H](O)[C@@H](O)[C@@H]1OP(=O)(O)O	Inositol-tetrakisphosphate 1-kinase (Homo sapiens, UniProt Q13572)	enzyme activity, substrate, ADP detection				Km	0.38 µM
CCC1(CC)C(=O)N(c2cccc(C(=O)N3CCN(Cc4ccc(Br)cc4)CC3)c2)C1=O	Dipeptidyl peptidase 8	inhibitor		with: GP-AMC substrate	baseline: Ki' DPP9 over Ki' DPP8	selectivity ratio	10
CC[C@H](C)[C@@H]1NC(=O)[C@H](Cc2ccccc2)NC(=O)[C@H](CCC(=O)O)NC(=O)[C@H](CCCNC(=N)N)NC(=O)CNC(=O)[C@@H](NC(=O)[C@H](CC(C)C)NC(=O)[C@H](CCCNC(=N)N)NC(=O)[C@@H](NC(=O)CNC(=O)[C@H](Cc2ccc(O)cc2)NC(=O)[C@@H]2CCCN2C(=O)[C@H](C)NC(=O)[C@H](C)NC(=O)[C@@H](N)CCCNC(=N)N)C(C)C)CSSC[C@@H]2NC(=O)[C@@H](NC(=O)[C@H](CO)NC(=O)[C@H](CO)NC(=O)[C@H](CO)NC(=O)[C@H](CC(C)C)NC(=O)CNC(=O)[C@H](C)NC(=O)[C@H](CC(C)C)NC(=O)[C@@H](NC(=O)[C@@H](N)CC(=O)O)C(C)C)CSSC[C@H](NC(=O)CNC(=O)[C@H](Cc3c[nH]c4ccccc34)NC(=O)[C@H](CCCCN)NC2=O)C(=O)N[C@@H](CO)C(=O)N[C@@H](CCCCN)C(=O)N[C@@H](CO)C(=O)N[C@@H](CCC(=O)O)C(=O)N[C@@H]([C@@H](C)CC)C(=O)N[C@@H](CO)C(=O)N[C@@H](CO)C(=O)N[C@@H](CC(C)C)C(=O)N[C@H](C(=O)O)CSSC[C@@H](C(=O)NCC(=O)NCC(=O)N[C@@H](CO)C(=O)N[C@@H](CCCNC(=N)N)C(=O)N[C@@H](Cc2c[nH]c3ccccc23)C(=O)O)NC(=O)[C@H]([C@@H](C)O)NC(=O)[C@H](Cc2ccccc2)NC(=O)[C@H]([C@@H](C)CC)NC(=O)[C@H](C(C)C)NC(=O)[C@H](C)NC(=O)[C@H](CCCNC(=N)N)NC1=O	RXFP3 (Homo sapiens, UniProt Q9NSD7, F371A)		HEK-293T		baseline: wild type	Emax	67 ± 4.84%
Fc1ccc(Nc2nc(NC3CCCCC3)c3cc(C(F)(F)F)ccc3n2)cc1F	ADRB2 (Homo sapiens, UniProt P07550, L155C)	β-arrestin2 recruitment, antagonist, BRET		mutant L155C	baseline: isoprenaline maximal response	maximal inhibition	-8.8%
CCOC(=O)C(CC)(CCCSCCCCCCNC(=O)OC(C)(C)C)NC(=O)c1ccc(C2CC2)c(Cc2ccc(F)cc2)n1 (stereo not drawn)	Cnr2 (Mus musculus, UniProt P47936)	cAMP, agonist				Emax	78%
CCCCCC(O)/C=C/C=O (stereo not drawn)	Ribonucleoside-diphosphate reductase large subunit (Homo sapiens, UniProt P23921)	competitive isoTOP-ABPP, refers to: RRM1 cysteine peptide	Ramos soluble proteome	100 µM, with: iodoacetamide probe	baseline: DMSO over compound-treated, higher = stronger cysteine blockade	isoTOP-ABPP competition ratio	1.4
CC(C)Oc1cc(Cl)ccc1CNc1cc(-c2ccccc2)nc2ncnn12	GPR3 (Homo sapiens, UniProt P46089, V196W)	cAMP level, cAMP GloSensor		1 nM	higher = more cAMP	cAMP luminescence	51100 a.u. and 47300 a.u. and 34500 a.u. and 33300 a.u.
C[Si](C)(C)C[C@H](CN)CC(=O)O	Interleukin-6 receptor subunit alpha (IL6R, Homo sapiens, UniProt P08887)	binding, radioligand binding		250 µM		inhibition	0%
C=C1CC2(C(=O)OC)C=C(C(=O)OC(C)(C)C)C(=O)C1C2 (stereo not drawn)	MAPK8	D-peptide binding, inhibitor, FP peptide displacement		62.5 µM	lower is stronger displacement	fraction bound	0.491
Cc1cc(=O)oc2cc(NC(=O)CCCCCCCC(=O)NO)ccc12	HDAC8 (Homo sapiens, UniProt Q9BY41)	ITC	triethanolamine buffer	pH 7.5		TΔS	4.9 kcal/mol

Excerpt of the above:
SMILES	target	assay	test system	setting	scale	quantity	value
COC(=O)[C@@]1(C)C=C(C(=O)OC(C)(C)C)C(=O)CC1	MAPK8	D-peptide binding, inhibitor, FP peptide displacement		7.812 µM	lower is stronger displacement	fraction bound	0.883
O=[N+]([O-])c1cc(Br)cc([N+](=O)[O-])c1NS(=O)(=O)c1ccc(Br)cc1	PYL10, with HAB1 (Arabidopsis thaliana, UniProt Q8H1R0)	antagonist		2.5 µM, with: ABA 5 µM	higher = more HAB1 activity	HAB1 phosphatase activity	0.083 a.u. and 0.09 a.u. and 0.081 a.u.
CCN(CC)C(CO)c1cccc2c(C)c(C)oc12 (stereo not drawn)	LPAR1 (Homo sapiens, UniProt Q92633)	G-protein dissociation, agonist, NanoBiT	HEK-293T	10 µM, wild-type receptor	baseline: baseline luminescence	fold change	0.605 and 0.743 and 0.671 and 0.735 and 0.678 and 0.556
